Results pooled from the literature.
Protocols differ between the studies behind these lines. Values joined by “and” are separate records of one study, mostly repeats; a detail may differ. ± gives the spread as reported.

SMILES	assay	system	conditions	scale	measurement	result
CC(C)[C@@H]1NC(=O)CNC(=O)[C@H](CC(N)=O)NC(=O)[C@H](CCCNC(=N)N)NC(=O)[C@H](Cc2ccc(O)cc2)NC(=O)[C@H](C(C)C)NC(=O)[C@@H](NC(=O)[C@@H](NC(=O)[C@H](CC(N)=O)NC(=O)[C@H](Cc2c[nH]c3ccccc23)NC(=O)[C@H](C)NC(=O)[C@H](Cc2ccccc2)NC(=O)CNC(=O)[C@H](CCCCN)NC(=O)[C@H](Cc2ccccc2)NC(=O)[C@H](Cc2ccccc2)NC(=O)[C@H](CCCCN)NC(=O)OCC2c3ccccc3-c3ccccc32)C(C)C)CSSC[C@@H](C(=O)N[C@@H](Cc2c[nH]cn2)C(=O)N[C@@H](CCCNC(=N)N)C(=O)N[C@@H](CCCNC(=N)N)C(=O)N[C@@H](C)C(=O)N[C@@H](CC(N)=O)C(N)=O)NC(=O)[C@H](C(C)C)NC(=O)[C@H](CCCNC(=N)N)NC1=O		ICR mice, blood	intraductal mammary, 5 mg/kg, day 5		plateletcrit	0.03%
C(#Cc1cncc(OC[C@@H]2CCN2)c1)c1ccccc1		male Sprague-Dawley rat, plasma	oral, 75 mg/kg, 30 min		concentration	410 ng/mL
CC[C@H](C)[C@H](NC(=O)[C@H](CCCCN)NC(=O)CNC(=O)[C@H](CC(C)C)NC(=O)[C@H](Cc1ccccc1)NC(=O)[C@H](CCCCN)NC(=O)[C@H](CO)NC(=O)[C@H](Cc1ccccc1)NC(=O)[C@H](Cc1c[nH]c2ccccc12)NC(=O)[C@H](CCC(N)=O)NC(=O)[C@@H](NC(=O)[C@H](Cc1ccccc1)NC(=O)CCCCCNC(=O)CN1CCN(CC(=O)O)CCN(CC(=O)O)CCN(CC(=O)O)CC1)C(C)C)C(=O)N[C@@H](CCC(=O)O)C(=O)N1CCC[C@H]1C(=O)N[C@@H](CC(=O)O)C(=O)N[C@H](C(=O)N[C@@H](CO)C(=O)N[C@@H](CCC(N)=O)C(=O)N[C@H](C(=O)N[C@@H](CCC(N)=O)C(=O)N[C@@H](CC(=O)O)C(=O)N1CCC[C@H]1C(=O)N[C@@H](CC(N)=O)C(=O)N[C@@H](CC(=O)O)C(=O)N[C@@H](CCC(N)=O)C(=O)N[C@@H](Cc1ccc(O)cc1)C(=O)N[C@@H](CCC(=O)O)C(=O)N1CCC[C@H]1C(=O)N[C@@H](Cc1ccccc1)C(=O)O)C(C)C)C(C)C [copper-64 labelled]	dynamic PET	mouse, CT26 tumour, checkpoint inhibitor-treated, tumour	intravenous, 100 µCi/mouse, 2220 s		SUVmean	4.98 SUV
CN1Cc2cc(Cl)ccc2-n2c(nnc2C2CCN(c3cccc(F)n3)CC2)C1		Sprague-Dawley rats male, pituitary	intravenous, 0.03 mg/kg, 30 min		concentration	11.9 ± 1.21 ng/mL
C=CCN1CCC23c4c5ccc(OC(=O)c6ccccc6)c4OC2C(=O)CCC3(O)C1C5 (stereo not drawn)		rat plasma	0.5 h, no inhibitor		remaining compound	0%
C=Cc1c(C)c2cc3nc(c(CC(=O)[O-])c4[n-]c(cc5nc(cc1[n-]2)C(C)=C5CC)c(C)c4C(=O)[O-])C(CCC(=O)[O-])C3C.[Cu+2].[Na+].[Na+].[Na+] (stereo not drawn)		Wistar rat, female	oral, 500 mg/kg daily, 28 days		serum alkaline phosphatase	160 ± 28.5 U/L
CCOc1ccccc1-n1c(CN2CCNCC2)nc2ccccc2c1=O		C57BL/6 mouse, male, plasma	intravenous, 1 mg/kg		AUC(0-t)	1.26 µM·h
CCCCC[C@@H]1OC(=O)[C@@H](C)N(C)C(=O)[C@H](CCCCC)N(C)C(=O)[C@@H](C)N(C)C(=O)[C@H](CCCCC)N(C)C(=O)[C@@H](C)N(C)C(=O)[C@H](CCCCC)N(C)C(=O)[C@@H](C)N(C)C1=O	PAMPA		500 µM, pH 7.4		log Papp	2.88 ×10⁻⁶ cm/s
COc1ccc(/C=C\c2cc(OC)c(OC)c(OC)c2)cc1OC(C)(C)c1ccc([N+](=O)[O-])s1	non-enzymatic, no POR	phosphate buffer	24 h, pH 7.4		parent drug release	0%
C[C@H](O)[C@@H](NC(=O)[C@H]1CCCN1C(=O)[C@@H](CCCCN)NC(=O)[C@@H](CO)NC(=O)[C@@H](Cc1ccc(O)cc1)NC(=O)[C@@H](CC(N)=O)NC(=O)CCOCCOCCOCCNC(=O)CN1CCN(CC(=O)O)CCN(CC(=O)O)CCN(CC(=O)O)CC1)C(=O)N[C@H](CC(=O)O)C(=O)N[C@H](CCCNC(=N)N)C(=O)N[C@H](CCC(N)=O)C(=O)N[C@H](Cc1ccc(O)cc1)C(=O)N[C@H](Cc1c[nH]cn1)C(=O)N[C@H](Cc1ccccc1)C(N)=O [copper-64 labelled]		C57BL/6J mice, stomach	intravenous, 1.85 MBq, 0.3333 h, radiolabelled		tissue uptake	1.15 ± 0.71 %ID/g
N=C(N)NCCC[C@H](NC(=O)[C@H](CCCNC(=N)N)NC(=O)[C@H](CCCNC(=N)N)NC(=O)[C@H](CCC(N)=O)NC(=O)[C@H](CCCNC(=N)N)NC(=O)[C@H](CCCNC(=N)N)NC(=O)[C@H](CCCCN)NC(=O)[C@H](CCCCN)NC(=O)[C@H](CCCNC(=N)N)NC(=O)CNC(=O)[C@H](Cc1ccc(O)cc1)NC(=O)[C@H](Cc1ccccc1)NC(=O)[C@H](Cc1ccccc1)NC(=O)[C@H](Cc1ccccc1)NC(=O)Cc1ccc2ccccc2c1)C(=O)O		C57BL/6 mice	intraperitoneal, 10 mg/kg, 2 h	direction not given	health score	5
CC(C)C(=O)OC[C@H]1O[C@@](C#N)(n2ccc(N)nc2=O)[C@H](O)[C@@H]1O	plasma stability	human plasma			half-life	> 120 min
C#Cc1c(F)ccc2cc(O)cc(-c3ncc4c(N5CC6CCC(C5)N6C(=O)OC(C)OC(=O)C(C)CC)nc(OC[C@@]56CCCN5C[C@H](F)C6)nc4c3F)c12 (stereo partly drawn)	item: prodrug	mouse whole blood	1 µM		t1/2	19.8 min
CCCCC(=O)N[C@H]1[C@H]([C@H](O)[C@H](O)CO)OC(C(=O)OC)=C[C@@H]1O	shake flask	aqueous buffer	2 h, pH 7.4		logD	0.15
CCCC[C@H]1C(=O)N(C)[C@@H](CCCC)C(=O)N[C@@H](CCCNC(=O)CN2CCN(CC(=O)O)CCN(CC(=O)O)CCN(CC(=O)O)CC2)C(=O)N[C@H](C(=O)NCC(N)=O)CSCC(=O)N[C@@H](Cc2ccc(O)cc2)C(=O)N(C)[C@@H](C)C(=O)N[C@@H](CC(N)=O)C(=O)N2CCC[C@H]2C(=O)N[C@@H](Cc2c[nH]cn2)C(=O)N[C@@H](CC(C)C)C(=O)N(C)CC(=O)N[C@@H](Cc2c[nH]c3ccccc23)C(=O)N[C@@H](CO)C(=O)N[C@@H](Cc2c[nH]c3ccccc23)C(=O)N1C [gallium-68 labelled]		NOD/SCID mice with CHO-hPD-L1 xenograft, lung	120 min post injection		tissue uptake	5.93 ± 2.2 %ID/g
CSCC[C@H](N)C(=O)N[C@@H](C)C(=O)N[C@@H](Cc1c[nH]c2ccccc12)C(=O)N[C@@H](Cc1c[nH]cn1)C(=O)N[C@@H](CC(=O)O)C(=O)N[C@@H](CC(=O)O)C(=O)N[C@@H](CCC(=O)O)C(=O)N[C@@H](CCC(=O)O)C(=O)N[C@@H](Cc1ccccc1)C(=O)N[C@@H](C)C(=O)N[C@@H](CCCNC(=N)N)C(=O)N[C@@H](CCCNC(=N)N)C(=O)N[C@@H](CCCNC(=N)N)C(=O)N[C@@H](CCCNC(=N)N)C(=O)NCCCCCC(=O)NCCCCC(NC(=O)CCCCCNC(=O)[C@H](CCCNC(=N)N)NC(=O)[C@H](CCCNC(=N)N)NC(=O)[C@H](CCCNC(=N)N)NC(=O)[C@H](CCCNC(=N)N)NC(=O)[C@H](C)NC(=O)[C@H](Cc1ccccc1)NC(=O)[C@H](CCC(=O)O)NC(=O)[C@H](CCC(=O)O)NC(=O)[C@H](CC(=O)O)NC(=O)[C@H](CC(=O)O)NC(=O)[C@H](Cc1c[nH]cn1)NC(=O)[C@H](Cc1c[nH]c2ccccc12)NC(=O)[C@H](C)NC(=O)[C@@H](N)CCSC)C(=O)NCCCCC(NC(=O)C(CCCCNC(=O)CCCCCNC(=O)[C@H](CCCNC(=N)N)NC(=O)[C@H](CCCNC(=N)N)NC(=O)[C@H](CCCNC(=N)N)NC(=O)[C@H](CCCNC(=N)N)NC(=O)[C@H](C)NC(=O)[C@H](Cc1ccccc1)NC(=O)[C@H](CCC(=O)O)NC(=O)[C@H](CCC(=O)O)NC(=O)[C@H](CC(=O)O)NC(=O)[C@H](CC(=O)O)NC(=O)[C@H](Cc1c[nH]cn1)NC(=O)[C@H](Cc1c[nH]c2ccccc12)NC(=O)[C@H](C)NC(=O)[C@@H](N)CCSC)NC(=O)CCCCCNC(=O)[C@H](CCCNC(=N)N)NC(=O)[C@H](CCCNC(=N)N)NC(=O)[C@H](CCCNC(=N)N)NC(=O)[C@H](CCCNC(=N)N)NC(=O)[C@H](C)NC(=O)[C@H](Cc1ccccc1)NC(=O)[C@H](CCC(=O)O)NC(=O)[C@H](CCC(=O)O)NC(=O)[C@H](CC(=O)O)NC(=O)[C@H](CC(=O)O)NC(=O)[C@H](Cc1c[nH]cn1)NC(=O)[C@H](Cc1c[nH]c2ccccc12)NC(=O)[C@H](C)NC(=O)[C@@H](N)CCSC)C(N)=O (stereo partly drawn)		C57BL/6 mouse female, colon	dose not given, 3 h	relative to: total	tissue distribution	1.81% and 2.66% and 4.48%
CC(C)(CCCC/C=C/CCCCCC(C)(C)C(=O)O)C(=O)O		beagle dog, both sexes	oral, dose not given, 24 h		plasma concentration	6900 ng/mL
O=C1NC2(CC2)COc2ncc(F)cc2[C@H]2COCCN2c2ccn3ncc1c3n2		Sprague-Dawley rat, male, kidneys	oral, 20 mg/kg/day, 4 weeks, end of treatment		organ-to-brain weight ratio	151 ± 24.1%

Some of these lines once more:
SMILES	assay	system	conditions	scale	measurement	result
CCCC[C@H]1C(=O)N(C)[C@@H](CCCC)C(=O)N[C@@H](CCCNC(=O)CN2CCN(CC(=O)O)CCN(CC(=O)O)CCN(CC(=O)O)CC2)C(=O)N[C@H](C(=O)NCC(N)=O)CSCC(=O)N[C@@H](Cc2ccc(O)cc2)C(=O)N(C)[C@@H](C)C(=O)N[C@@H](CC(N)=O)C(=O)N2CCC[C@H]2C(=O)N[C@@H](Cc2c[nH]cn2)C(=O)N[C@@H](CC(C)C)C(=O)N(C)CC(=O)N[C@@H](Cc2c[nH]c3ccccc23)C(=O)N[C@@H](CO)C(=O)N[C@@H](Cc2c[nH]c3ccccc23)C(=O)N1C [gallium-68 labelled]		NOD/SCID mice with CHO-hPD-L1 xenograft, lung	120 min post injection		tissue uptake	5.93 ± 2.2 %ID/g
CCOc1ccccc1-n1c(CN2CCNCC2)nc2ccccc2c1=O		C57BL/6 mouse, male, plasma	intravenous, 1 mg/kg		AUC(0-t)	1.26 µM·h
